Measured values gathered from unrelated publications.
Each line is one published result; not all experiments were run side by side. Several values in a cell are separate wells, animals, samples, runs or records. ± marks the error that the study gave.

Structure (SMILES) | assay | test system | conditions | measurement | result
Cc1cc([C@H]2C[C@H]3[C@@H](CF)SC(N)=N[C@@]3(c3ccc(F)cc3F)CO2)on1 | – | male 129/SVE wild-type mouse, plasma | subcutaneous, 100 mg/kg, 14 h | plasma concentration | 0.032 µM
Cc1noc(C)c1-c1ccc2nc(-c3cnn(CC(C)(C)O)c3)nc(N3CCOC[C@@H]3c3ccccc3)c2c1 | – | CD-1 mouse, plasma | intravenous, 2 mg/kg | plasma clearance | 7.3 mL/min/kg
CCCCCN1C[C@H](O)[C@@H](O)[C@H](O)[C@@H]1CO | LC-MS/MS | mouse Hexb-/- total, plasma | 300 mg/kg/day, arithmetic mean | plasma concentration | 3580 ng/mL
CCn1c2ccc(CNCCOCCOCCOCCC(=O)NCCOc3ccc(CCc4nc5cc(-c6c(C)noc6C)ccc5n4CCN4CCOCC4)cc3F)cc2c2ccc(-c3cc(C)cs3)cc21 | – | Swiss albino mouse, male, plasma | intraperitoneal, 50 mg/kg, over 8 h | plasma exposure | > 400 nM
C[C@@H](O)[C@H]1C(=O)N2C(C(=O)O)=C(S[C@@H]3CN[C@H](C(=O)N(C)C)C3)[C@H](C)[C@H]12 | – | BALB/c mouse, male, plasma | intraperitoneal, dose not given, 6 h, added: combination treatment | plasma concentration | 5320 ng/mL
COC(=O)/C=C/c1cc(C(=O)NCc2ccc(C)cc2)cc(-c2ccc3ncnn3c2)c1 | – | mouse, plasma | 37 °C | plasma stability | unstable
O=C1CCC(N2Cc3cc(CO)c(F)cc3C2=O)C(=O)N1 (centres unmarked) | – | CD-1 mouse, male | oral, 10 mg/kg parent drug, 0.17 h | plasma concentration | 13.2 ± 9 ng/mL
CC(C)(C)c1cc(NC(=O)Nc2ccc(Oc3ccnc4[nH]c(=O)cnc34)cc2F)n(-c2ccccc2)n1 | – | NSG mouse, female, plasma | oral, 20 mg/kg, 1 h after last dose | plasma concentration | 26.1 µM and 25.4 µM and 29.9 µM and 20.8 µM and 27.7 µM
